Published values of several laboratories.
± marks the error that the study gave.

`N.N.O=C([O][Pt]([Cl])([Cl])[O]C(=O)c1ccc(P(c2ccccc2)c2ccccc2)cc1)c1ccc(P(c2ccccc2)c2ccccc2)cc1.[Cl][Au].[Cl][Au]` has an IC50 of 30.1 µM (IMR-90; cell growth or viability, resazurin; 72 h).
With `CC(C)c1cccc(C(C)C)c1-n1c[n+](-c2c(C(C)C)cccc2C(C)C)c2c1-c1cccc3cccc-2c13.[Cl][Pd-]([Cl])[CH2]C=Cc1ccccc1` the IC50 was 5.5 ± 0.4 µM (C13 cisplatin-resistant; cell viability, MTT; 72 h).
`CC(C)C[C@H](NC(=O)[C@H](CCCCN)NC(=O)[C@H](CCCCN)NC(=O)[C@H](CC(C)C)NC(=O)[C@H](CC(C)C)NC(=O)[C@H](CCCCN)NC(=O)[C@H](CCCCN)NC(=O)[C@H](CC(C)C)NC(=O)[C@H](CC(C)C)NC(=O)[C@H](CCCCN)NC(=O)[C@H](CCCCN)NC(=O)[C@H](CC(C)C)NC(=O)[C@@H](N)CC(C)C)C(=O)N[C@@H](CCCC(=O)O)C(N)=O` has an IC50 of less than 6 µM (HCCC9810; cell growth or viability, CCK-8).
`CC(C)C[C@H](NC(=O)[C@H](CCCCN)NC(=O)[C@H](CC(C)C)NC(=O)[C@H](CC(C)C)NC(=O)[C@H](CCCCN)NC(=O)[C@H](CCCCN)NC(=O)[C@H](CC(C)C)NC(=O)[C@H](CC(C)C)NC(=O)[C@H](CCCCN)NC(=O)[C@H](CC(C)C)NC(=O)[C@H](CC(C)C)NC(=O)[C@H](CCCCN)NC(=O)[C@H](CCCCN)NC(=O)[C@H](CC(C)C)NC(=O)[C@@H](N)CSSC[C@H](N)C(=O)N[C@@H](CC(C)C)C(=O)N[C@@H](CCC(=O)O)C(=O)N[C@@H](CCC(=O)O)C(=O)N[C@@H](CC(C)C)C(=O)N[C@@H](CC(C)C)C(=O)N[C@@H](Cc1c[nH]cn1)C(=O)N[C@@H](Cc1c[nH]cn1)C(=O)N[C@@H](CC(C)C)C(=O)N[C@@H](CCC(=O)O)C(=O)N[C@@H](CCC(=O)O)C(=O)N[C@@H](CC(C)C)C(=O)N[C@@H](CC(C)C)C(=O)N[C@@H](Cc1c[nH]cn1)C(=O)N[C@@H](Cc1c[nH]cn1)C(N)=O)C(N)=O` has an IC50 of 13.6 µM (RG; cell viability, MTT; 0.5 h, pH 6.0).
The IC50 of `CC(C)C[C@H](NC(=O)[C@H](C)NC(=O)[C@H](CCCCN)NC(=O)[C@H](C)NC(=O)[C@H](C)NC(=O)[C@@H]1CSCc2ccc(cc2)CSC[C@H](NC(=O)[C@H](CCCCN)NC(=O)[C@H](Cc2ccccc2)NC(=O)CN)C(=O)N[C@@H](CC(C)C)C(=O)N[C@@H](CC(C)C)C(=O)N[C@@H](CCCCN)C(=O)N1)C(=O)N[C@H](C(=O)N[C@@H](CCCCN)C(=O)N[C@H](C(=O)N[C@H](C(=O)N[C@@H](CC(C)C)C(=O)N[C@@H](Cc1ccccc1)C(N)=O)C(C)C)[C@@H](C)O)C(C)C` is reported as 18.2 µM (U87; cell proliferation, CCK-8; 48 h).
With `Cc1nn(-c2ccccc2)c(O)c1C(c1cccc([N+](=O)[O-])c1)c1c(C)nn(-c2ccccc2)c1O` the IC50 was greater than 40 µM (HEK293; cell growth or viability, MTT; 48 h).
`Cc1cc(C)c(N2CCN(c3c(C)cc(C)cc3C)C2=[Se])c(C)c1.[Cl][Ag]` gave an IC50 of 21.3 µM (A2780; cell growth or viability; 72 h, 3D culture).
The IC50 of `C=C(C)CC(OC)C(O)C(=O)NC(OC)C1CC(=NOC)C(C)(C)C(CC(O)C(C)C2Cc3c(C)c(O)cc(O)c3C(=O)O2)O1` (single isomer, unassigned; (+)) is reported as 0.0008 µM (H522-T1; cell growth or viability).
The IC50 of `C#CCCCC[C@H](C)C[C@@H](C)C(=O)N[C@@H](C)C(=O)N1CCC[C@H]1C(=O)N[C@H](C(=O)N[C@H](C(=O)N[C@H](C(=O)N[C@@H](Cc1ccccc1)C(=O)N1CCC[C@H]1C(=O)N1CCC[C@H]1C(C)=O)C(C)C)C(C)C)C(C)C` is reported as 328 µM (HEK293; cell growth or viability, SRB).
`COc1cc(C=CC(=O)CC(=O)C=Cc2ccc(OC(=O)CCC(=O)OC3OC4OC5(C)CCC6C(C)CCC(C3C)C46OO5)c(OC)c2)ccc1OC(=O)CCC(=O)OC1OC2OC3(C)CCC4C(C)CCC(C1C)C24OO3` (stereo not drawn) has an IC50 of 1.37 ± 0.9 µM (RPMI-7951; cell viability, MTT; 24 h, without deferoxamine).
`[Cl][Ag].[Se]=c1n(C2CCCCC2)ccn1C1CCCCC1` has an IC50 of 23.1 µM (A2780; cell growth or viability; 72 h, 3D culture).
For `O=C(Cc1ccc2ccccc2c1)N[C@H](Cc1ccc(O)cc1)C(=O)N[C@H](Cc1ccccc1)C(=O)N[C@H](Cc1ccccc1)C(=O)N[C@H](Cc1ccc(OP(=O)(O)O)cc1)C(=O)O`, the IC50 was 283 µg/mL (A2780cis; cell growth or viability, MTT).
With `CC(C)C[C@H](NC(=O)[C@H](CC(C)C)NC(=O)[C@H](CCC(=O)O)NC(=O)[C@H](Cc1c[nH]cn1)NC(=O)[C@H](CC(C)C)NC(=O)[C@H](Cc1c[nH]cn1)NC(=O)[C@H](CCC(=O)O)NC(=O)[C@H](CC(C)C)NC(=O)[C@H](CC(C)C)NC(=O)[C@H](CCC(=O)O)NC(=O)[C@H](Cc1c[nH]cn1)NC(=O)[C@@H](N)CC(C)C)C(=O)N[C@@H](CCC(=O)O)C(=O)N[C@@H](Cc1c[nH]cn1)C(N)=O` the IC50 was greater than 100 µM (RG; cell viability, MTT; 0.5 h, pH 6.0).
The IC50 of `NC(=O)N/N=C/c1ccc(OCc2cccc(F)c2)cc1` is reported as 14.3 µg/mL (IMR-32; cell growth or viability, MTT; 24 h).
With `CC(C)C[C@H](NC(=O)[C@H](CC(C)C)NC(=O)[C@H](Cc1c[nH]cn1)NC(=O)[C@H](CCC(=O)O)NC(=O)[C@H](CC(C)C)NC(=O)[C@H](Cc1c[nH]cn1)NC(=O)[C@H](CCC(=O)O)NC(=O)[C@H](CC(C)C)NC(=O)[C@H](CC(C)C)NC(=O)[C@H](Cc1c[nH]cn1)NC(=O)[C@H](CCC(=O)O)NC(=O)[C@@H](N)CC(C)C)C(=O)N[C@@H](CCC(=O)O)C(=O)N[C@@H](Cc1c[nH]cn1)C(N)=O` the IC50 was greater than 100 µM (HK-2; cell growth or viability, MTT; pH 6).
`C=C(C)CC(OC)C(O)C(=O)NC(OC)C1CC(=C)C(C)(C)C(CC(O)C(C)C2Cc3c(C)c(O)cc(O)c3C(=O)O2)O1` (single isomer, unassigned; (+)) has an IC50 of 0.049 µM (IMR-90; cell growth or viability).
For `O=C(Cc1ccc2ccccc2c1)N[C@H](Cc1ccccc1)C(=O)N[C@H](Cc1ccccc1)C(=O)N[C@H](Cc1ccc(OP(=O)(O)O)cc1)C(=O)N[C@H](Cc1ccc(OP(=O)(O)O)cc1)C(=O)O`, the IC50 was greater than 483 µg/mL (A2780cis; cell growth or viability, MTT).
The IC50 of `CC[C@H](C)[C@@H]1NC(=O)[C@H](CCCNC(=N)N)NC(=O)C[C@@H](c2cccc3ccccc23)NC(=O)[C@@H]2CSSC[C@H](NC(=O)C[C@@H](c3cccc4ccccc34)NC(=O)[C@H](CCCNC(=N)N)NC(=O)[C@@H]3CCCN3C(=O)[C@@H]3CCCN3C1=O)C(=O)N[C@@H](Cc1ccccc1)C(=O)N1CCC[C@H]1C(=O)N[C@@H](CC(=O)O)C(=O)N[C@@H](CC(=O)O)C(=O)N[C@@H](Cc1ccccc1)C(=O)N2` is reported as greater than 20 µM (MCF7 (HER2-); cell growth; 72 h).
The IC50 of `O=C(Nc1ccc(Br)cc1)c1cc(Br)cc(Br)c1O` is reported as 5.7 µM (HEK293T; cell growth, PrestoBlue; 72 h).
`Cc1cc(C)c(-n2ccn(-c3c(C)cc(C)cc3C)c2=[Se])c(C)c1.[Cl][Au]` has an IC50 of 3.2 ± 0.5 µM (LoVo MDR; MTT; 72 h).
`O=C(N=P12CN3CN(CN(C3)C1)C2)c1cccc[c]1[Pd][Br].c1cncc(P(c2cccnc2)c2cccnc2)c1` has an IC50 of 298 ± 14 µM (human PBMC; cytotoxicity, MTT; 24 h, 1% DMSO).
For `COc1cccc2c1cc([N+](=O)[O-])c1c(C(=O)O)cc3c(c12)OCO3`, the IC50 was 103 µM (HK-2; cell growth or viability).
`CC(C)C[C@H](NC(=O)[C@H](CCCCN)NC(=O)[C@H](CC(C)C)NC(=O)[C@H](CC(C)C)NC(=O)[C@H](CCCCN)NC(=O)[C@H](CCCCN)NC(=O)[C@H](CC(C)C)NC(=O)[C@H](CC(C)C)NC(=O)[C@H](CCCCN)NC(=O)[C@H](CC(C)C)NC(=O)[C@H](CC(C)C)NC(=O)[C@H](CCCCN)NC(=O)[C@H](CCCCN)NC(=O)[C@H](CC(C)C)NC(=O)[C@@H](N)CSSC[C@H](N)C(=O)N[C@@H](CC(C)C)C(=O)N[C@@H](Cc1c[nH]cn1)C(=O)N[C@@H](CCC(=O)O)C(=O)N[C@@H](CC(C)C)C(=O)N[C@@H](CC(C)C)C(=O)N[C@@H](CCC(=O)O)C(=O)N[C@@H](Cc1c[nH]cn1)C(=O)N[C@@H](CC(C)C)C(=O)N[C@@H](Cc1c[nH]cn1)C(=O)N[C@@H](CCC(=O)O)C(=O)N[C@@H](CC(C)C)C(=O)N[C@@H](CC(C)C)C(=O)N[C@@H](CCC(=O)O)C(=O)N[C@@H](Cc1c[nH]cn1)C(N)=O)C(N)=O` gave an IC50 of greater than 100 µM (HK-2; cell growth or viability, MTT; pH 7.4).
`C#CCN[C@@H]1C=C[C@]2(O[C@H]([C@@H](CC)C(=O)[C@@H](C)[C@@H](O)[C@H](C)[C@@H]3O[C@@H]([C@@H](CC)C(=O)O)CC[C@@H]3C)[C@@H](C)C[C@H]2C)O[C@@]12CC[C@@](C)([C@H]1CC[C@](O)(CC)[C@H](C)O1)O2` has an IC50 of 1.75 ± 0.06 µM (HMLER CD24high/CD44low; cell viability, CellTiter-Blue; 72 h).
With `CC(C)C[C@H](NC(=O)[C@H](CC(C)C)NC(=O)[C@H](CCC(=O)O)NC(=O)[C@H](CCC(=O)O)NC(=O)[C@H](CC(C)C)NC(=O)[C@H](Cc1c[nH]cn1)NC(=O)[C@H](Cc1c[nH]cn1)NC(=O)[C@H](CC(C)C)NC(=O)[C@H](CC(C)C)NC(=O)[C@H](CCC(=O)O)NC(=O)[C@H](CCC(=O)O)NC(=O)[C@@H](N)CC(C)C)C(=O)N[C@@H](Cc1c[nH]cn1)C(=O)N[C@@H](Cc1c[nH]cn1)C(N)=O` the IC50 was greater than 100 µM (HK-2; cell growth or viability, MTT; pH 6).
`c1ccc(-c2cc(-c3ccc4ccccc4n3)c3c4nncn4c4nncn4c3n2)cc1` gave an IC50 of 20.9 µM (RPE-1; cell growth or viability, MTT; 48 h).
`C1=CCCC=CCC1.C1=CCCC=CCC1.O=C(N=P12CN3CN(CN(C3)C1)C2)c1cccc[c]1[Pt+].O=C(N=P12CN3CN(CN(C3)C1)C2)c1cccc[c]1[Pt+].[Cl][Hg-]([Cl])[Cl].[Cl][Hg-]([Cl])[Cl].[Cl][Hg][Cl].[Cl][Hg][Cl]` has an IC50 of 2.13 ± 0.24 µM (Jurkat; cell viability, MTT; 24 h).

Repeated from above:
`[Cl][Ag].[Se]=c1n(C2CCCCC2)ccn1C1CCCCC1` has an IC50 of 23.1 µM (A2780; cell growth or viability; 72 h, 3D culture).
With `CC(C)c1cccc(C(C)C)c1-n1c[n+](-c2c(C(C)C)cccc2C(C)C)c2c1-c1cccc3cccc-2c13.[Cl][Pd-]([Cl])[CH2]C=Cc1ccccc1` the IC50 was 5.5 ± 0.4 µM (C13 cisplatin-resistant; cell viability, MTT; 72 h).
